Assay results gathered from unrelated publications.
Numbered parts are unrelated; each lists some results of a single study. Substitutions count along the parent as printed.

Set 1 — method: protein-binding microarray; molecule type: double-stranded DNA, one strand shown; sample: in vitro; tested at: not given; reading: higher = stronger binding
Target: Myc proto-oncogene protein, bHLH-zipper, MAX partner unstated (MYC, Homo sapiens, UniProt P01106, residues 368-449)
Sequence of UniProt P01106 (368-449, looked up): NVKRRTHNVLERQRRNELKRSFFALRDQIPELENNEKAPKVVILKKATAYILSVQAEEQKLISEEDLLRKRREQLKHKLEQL
Setting: k-mer, scored over probes, only values ≥0.25
Oligonucleotide	E-score
GTGCGGCA	0.32
CGTGGTCA	0.419
AAGCATGT	0.412
GACCCGCC	0.313
ACCGCGTG	0.488
ATGTGGTG	0.32
ATGTGTCC	0.345
ATAACACG	0.357
CGGTCACA	0.251
ATCCCACG	0.339
GCCATGTA	0.267
AAACACAC	0.262
GTGCGCGA	0.287
GGCGTGTA	0.32
TAACACGA	0.31
ATGCAACG	0.258
CACGCTGA	0.357
ACGCAATG	0.257
CATATGGG	0.337
CACATGAA	0.295
CGCGTTAC	0.281
CCGCCACC	0.271
CTCGTGTA	0.44

Set 2 — method: protein-binding microarray; molecule type: double-stranded DNA, one strand shown; sample: in vitro; tested at: 940 nM top; setting: 60-bp whole probe; added: salmon DNA 0.4 mg/ml; relative to: random background probes; reading: higher = stronger binding; all sequences stand within: GCCTAGCAC … GTCTTGATTCGCTTGACGCTGCTG
Target: Interferon regulatory factor 5, full length, phosphomimetic (IRF5, Homo sapiens, UniProt Q13568-2, residues 1-514, S451D/S453D/S456D/S462D)
Oligonucleotide	fitted relative affinity [z-score]
GTCATACGAGCGGTAGCCAAGTGCTAG	-0.352
GGCGATATCGGGACTGGAGACGTGCTA	-0.336
CTCTGTTTATGTCTGGGTATGTGCTAG	0.52
GACGGTTTCGACTTTCTGGACGTGCTA	7.34
TCATGTCTGTTTTTGCTACTGTGCTAG	0.744
GACGGACTGGACTATCGGCACGTGCTA	-0.611
GACGATATCAGGTATCGAGACGTGCTA	1.07
GACCGTTTCGACTATCGGGACGTGCTA	3.99
TCATTTTTTTTTTCTGAACTGTGCTAG	1.91
TATGGCTTCAAGTAACTACAGTGCTAG	-0.525
GACGGTTCCGGTTTCGGAACGTGCTAG	6.02
TTAGACCTCAGTTTCGATTAGTGCTAG	7.57
CTCATTCTCCACTTGTGTTTGTGCTAG	0.775
GACGGACTGGGTACTGGGGACGTGCTA	-0.421
TTAGGACTGCTTATCCTATAGTGCTAG	-0.142
GACGGTTTCGGGATTCGGGACGTGCTA	7.81
ACTTCCCTCGGGTTGCGGAGCGTGCTA	-0.161
TCACTTTTCCCCCTAGTACTGTGCTAG	1.32
GACGGTATAGGGACTGGGGACGTGCTA	-0.124

Set 3 — method: RNA Bind-n-Seq; molecule type: RNA; sample: in vitro; tested at: 365 nM; relative to: no-protein control; reading: higher = stronger binding
Target: RNA binding protein fox-1 homolog 2, RRM domain, GST-SBP tag (RBFOX2, Homo sapiens, UniProt O43251-10, residues 100-194)
Setting: natural RNA segment, single round, ends assumed
All sequences stand within: GGGAGUUCUACAGUCCGACGAUC … UGGAAUUCUCGGGUGCCAA
Target sequence (chain): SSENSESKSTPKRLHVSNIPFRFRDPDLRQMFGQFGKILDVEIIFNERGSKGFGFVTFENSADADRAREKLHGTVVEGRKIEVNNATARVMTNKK
Oligonucleotide	RBNS enrichment (R)
UCUCUGCUUGAACACAGUAUUCUCCCAGUCCACACCCAUUGCCAGUGUCUUUCUUUGGUGCCUUUCCUGUUCAGCAUUCUCAGCCUGUGGCAGUAAAGAGAAACUUUGCU	1.37
ACCACGUCUGUGCCCUGCACUGUCCCCACAGCCUUCCACACCCUGUGCAUAGGCAGCCCUCUCACGUCUUGAGGUCCGAAGCUGGGGUGGGGGUGUCCGUCAGUUAUUAG	0.377
GGAGGCAGCUGACCUCUCCAGUUGCUGUGUUGUAUUCCUACCCAAUUUCCUGGGCAGUUGAUGCAUCUCUGGGAAAAACACCAGAAAGCUUGCUGAAAUGGAAAACUUGG	0.882
GCCUUCCUUCCCCCAGGGCCUAUUUCUUGUGUGGAUCACGUGGCAGUAGCAUGUUGCAGUCAGACGUCUCCACUACCCUGUUGAGAACAGCCUGGGAAUGUACAGGUCAU	36
UGGAAACUUUUCUUAAAAAGUUAUAACCAACUUUUCUAUUAAAAGUGGGAAUUAGGAGAGAAGGUAGGGGUUGGGAAUCAGAGAGAAUGGCUUUGGUCUCUUGCUUGUGG	1.43
CUUUUUACCCCUCCCCCUUCUGCCAUGUAACUGGAGGAUGUGCUAUGAGGUUGCAAACAGCUGGACUGUCAGGCUGCUUUUUCCCAGAUGCCUCCCUGCCUCCCUCCCUC	0.73
AAUGAAUAUUAAAAGCAUGGAGAGGAAACAUGAGGAACAAUGAAUUUCAACAUAUGGCUUCAGAACAUGAAGAUGUUCUUGUAUGGAUUAUAGUAUCUAGUAUUCAAAAA	4.06
UUAGAAACUGCUCAGCCACAGGGUCCCAGUGUCUGAGUCUGGAAGAGUCUUUAGAGAUUUGUUCACUCUCUGAGGGAUCCUCCUGGCUCUGCUUACAUACUUCCAGGGAC	0.308

Set 4 — target: CCNF, cyclin fold, Cln2 fusion (human); method: yeast growth competition, sequencing; sample: yeast; setting: strong parent motif; relative to: not given; reading: higher = stronger binding
Starting sequence: WEE1 docking peptide (human); CTLRQKLIFSPCS
Variant	normalised enrichment score
L3A	4.96
R4A	2.59
L7A	0.589
S10A	2.54
T2A	3.86
K6A	1.5
I8A	2.36

A few entries again (set 2):
Oligonucleotide	fitted relative affinity [z-score]
TTAGACCTCAGTTTCGATTAGTGCTAG	7.57
CTCATTCTCCACTTGTGTTTGTGCTAG	0.775
GACGGACTGGGTACTGGGGACGTGCTA	-0.421
TTAGGACTGCTTATCCTATAGTGCTAG	-0.142
GACGGTTTCGGGATTCGGGACGTGCTA	7.81
ACTTCCCTCGGGTTGCGGAGCGTGCTA	-0.161
TCACTTTTCCCCCTAGTACTGTGCTAG	1.32
GACGGTATAGGGACTGGGGACGTGCTA	-0.124
